Experimental data pooled from the literature.
Parts stem from different laboratories: compare values within a part only.

Block 1 — method: universal PBM; molecule type: double-stranded DNA, one strand shown; medium: in vitro; concentration: not given; reading: higher = stronger binding; endpoint: E-score
Target: Sal-like protein 4, full length isoform B (SALL4, Homo sapiens, UniProt Q9UJQ4-2, residues 1-616)
Setting: 8-mer, flanks averaged, mean of replicates
Residues (chain): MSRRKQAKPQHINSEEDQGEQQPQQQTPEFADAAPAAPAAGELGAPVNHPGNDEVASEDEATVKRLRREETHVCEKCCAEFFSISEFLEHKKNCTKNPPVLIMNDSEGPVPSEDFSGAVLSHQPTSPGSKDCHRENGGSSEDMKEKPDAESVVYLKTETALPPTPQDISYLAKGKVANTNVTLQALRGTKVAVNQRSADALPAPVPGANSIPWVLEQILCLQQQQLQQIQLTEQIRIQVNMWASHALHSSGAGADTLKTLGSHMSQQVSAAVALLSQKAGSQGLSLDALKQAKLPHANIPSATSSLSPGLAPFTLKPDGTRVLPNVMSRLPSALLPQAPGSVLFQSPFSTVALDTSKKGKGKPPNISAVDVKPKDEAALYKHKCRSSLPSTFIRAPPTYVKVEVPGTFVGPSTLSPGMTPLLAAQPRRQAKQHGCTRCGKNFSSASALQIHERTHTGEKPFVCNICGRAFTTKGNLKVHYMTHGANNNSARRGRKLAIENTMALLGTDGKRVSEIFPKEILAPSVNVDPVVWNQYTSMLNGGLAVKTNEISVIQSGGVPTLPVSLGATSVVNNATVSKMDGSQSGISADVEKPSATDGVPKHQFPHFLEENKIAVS
AAAAAAGG: 0.0579
ATCCTCAT: 0.021
AAGTCGCT: -0.0844
GAATCCAC: -0.0292
GTGCGCGA: -0.226

Block 2 — method: protein binding microarray; molecule type: double-stranded DNA, one strand shown; medium: in vitro; concentration: not given; reference: not given; reading: higher = stronger binding; endpoint: E-score
Target: Histone acetyltransferase KAT6A, winged helix 1, GST fusion (KAT6A, Homo sapiens, UniProt Q92794, residues 1-85)
Setting: 8-mer, flanks averaged, mean of 2 arrays, mostly near background
Target sequence (chain): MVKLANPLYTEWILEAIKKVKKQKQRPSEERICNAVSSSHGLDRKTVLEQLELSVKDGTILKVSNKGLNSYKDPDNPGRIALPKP
AGAGTACC: 0.0108
AGCAAGTA: -0.0671
CGGCGACC: 0.399
ACATCAGC: -0.0651
CTGTAGTC: 0.0119

Further values, each from its own experiment
UNK zinc fingers 1-6, GST-SBP tag: RING finger protein unkempt homolog, zinc fingers 1-6, GST-SBP tag (UNK, Homo sapiens, UniProt Q9C0B0, residues 30-357)
UniProt Q9C0B0, sequence (30-357, looked up): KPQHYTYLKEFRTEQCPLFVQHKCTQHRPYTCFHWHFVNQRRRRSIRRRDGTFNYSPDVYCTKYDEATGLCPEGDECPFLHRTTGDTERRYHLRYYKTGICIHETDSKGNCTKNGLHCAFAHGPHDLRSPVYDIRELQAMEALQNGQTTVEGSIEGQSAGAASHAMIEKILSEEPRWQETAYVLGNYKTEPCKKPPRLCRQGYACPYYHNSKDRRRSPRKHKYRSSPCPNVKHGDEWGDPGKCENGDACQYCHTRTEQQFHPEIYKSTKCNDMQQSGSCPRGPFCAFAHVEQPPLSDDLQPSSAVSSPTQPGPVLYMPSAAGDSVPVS
GGGAGUUCUACAGUCCGACGAUCUAAAUUAGGGCUGCCGUUUUCUGUUUCUCCCUGGGCUGCGGAAAGCCAGAAGAUUUUAUCUAGCUUAUACAAGGCUGCUGGAGCUUGCUCUUUUUUUCCACGAGGGUGUUUUUGGCUGCACAACAGAGGAUUGAGCAUCA — bound/input enrichment (UNK zinc fingers 1-6, GST-SBP tag; RNA Bind-n-Seq; RNA, in vitro; not given, RNA with constant flanks, human-mouse chimeric sites, ends assumed; reference: input RNA pool, higher = stronger binding): 0.584 ratio
PhoQ, residues 284 288 289 292 302 303 SMMNNA — fold induction (PhoP, residues 12 14 15 18 19 NNFVT (Escherichia coli, UniProt P23836); Sort-seq, item: YFP reporter; E. coli; PhoQ-PhoP variant library, with: 10 µM Mg2+; reference: high Mg2+ state, higher = stronger signaling): 5.19
GGGAGUUCUACAGUCCGACGAUCGUCACCCUCAUGAUGGAUGCCACCAACAUGCCUGCCGUCAAAGCUAUCAUAUACCAGUACAUAGAAGAGAUUUAUCACCGGAUCCCCAACUCAGACCCAUCAUCAAGCAAAACCAAGCAGCAACAGAGGAUUGAGCAUCA — bound/input enrichment (UNK zinc fingers 1-6, GST-SBP tag; RNA Bind-n-Seq; RNA, in vitro; not given, RNA with constant flanks, human and mouse sites, ends assumed; reference: input RNA pool, higher = stronger binding): 0.944 ratio
GGGAGUUCUACAGUCCGACGAUCGUAUAUGGUGGAAAUUUGUGGCUAGUGUGAUUUUUGUUUGUUUCCUUUUAAGUACUGUUGAUCAGUUGUGACACUUACUGGUUAAACUUACGUUGCUAAAGAUUUCUCUAUAAUAAGCCACAACAGAGGAUUGAGCAUCA — bound/input enrichment (UNK zinc fingers 1-6, GST-SBP tag; RNA Bind-n-Seq; RNA, in vitro; not given, RNA with constant flanks, human and mouse sites, ends assumed; reference: input RNA pool, higher = stronger binding): 0.498 ratio

Excerpt of the above (further values, each from its own experiment):
GGGAGUUCUACAGUCCGACGAUCUAAAUUAGGGCUGCCGUUUUCUGUUUCUCCCUGGGCUGCGGAAAGCCAGAAGAUUUUAUCUAGCUUAUACAAGGCUGCUGGAGCUUGCUCUUUUUUUCCACGAGGGUGUUUUUGGCUGCACAACAGAGGAUUGAGCAUCA — bound/input enrichment (UNK zinc fingers 1-6, GST-SBP tag; RNA Bind-n-Seq; RNA, in vitro; not given, RNA with constant flanks, human-mouse chimeric sites, ends assumed; reference: input RNA pool, higher = stronger binding): 0.584 ratio
